Measured values from different studies.
Parts stem from different laboratories: compare values within a part only.

Sample 1
Target: RING finger protein unkempt homolog, zinc fingers 1-6, GST-SBP tag (UNK, Homo sapiens, UniProt Q9C0B0, residues 30-357)
Sequence of UniProt Q9C0B0 (30-357, looked up): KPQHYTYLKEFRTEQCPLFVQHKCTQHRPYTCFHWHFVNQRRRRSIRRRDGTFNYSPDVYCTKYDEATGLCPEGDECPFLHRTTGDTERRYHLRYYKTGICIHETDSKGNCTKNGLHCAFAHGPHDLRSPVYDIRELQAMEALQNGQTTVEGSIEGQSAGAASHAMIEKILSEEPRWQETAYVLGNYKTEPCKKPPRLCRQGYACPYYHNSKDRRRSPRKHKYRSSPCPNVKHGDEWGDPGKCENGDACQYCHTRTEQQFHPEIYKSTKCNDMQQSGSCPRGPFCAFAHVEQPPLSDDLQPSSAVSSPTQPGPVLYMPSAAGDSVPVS
Method: RNA Bind-n-Seq
Form: RNA
Matrix: in vitro
Tested at: not given
Notes: RNA with constant flanks, human-mouse chimeric sites, ends assumed
Baseline: input RNA pool
Direction: higher = stronger binding
Quantity: bound/input enrichment
All sequences stand within: GGGAGUUCUACAGUCCGACGAUC … CAACAGAGGAUUGAGCAUCA
Strand = AUCAAAUACUUUGGGGAUAUUAUUAGCGUGGGACAGAGACUGUUGCAAGGAGCUCGGAUCUUAGGGAUUCCAGUUAUCAUAACGGAACAAUACCCCAAAGGACUUGGGAGCACGGUUCAA; result = 0.388 ratio
Strand = UAAGUCCUGUGCCAGCAAUUUAUCCCAAAAGUUUUAAAUUCUGGACCAAUAGUGUUUGUUUCCUGAUUAUUGUAUCCAAUACUUUAUCUAGUAUGUAACUCACUCUUACUGAUAAUAAAA; result = 3.03 ratio
Strand = CUGGGCUUCUCUUUUCUUUCUUUCCUUUAGGAAAAGCCUAAAGAUUAGGUUGUAAGAAAAAUAGAAGCCAUGUUUCGAAGACCUGUGUUACAGGUAUUUCGUCAGUUUGUAAGACAUGAG; result = 0.272 ratio
Strand = CUGGCCUGGCCCUCCCCAGGGGCCUCCUUUCGUAUAGUCACUGCUUCUGCAUCAGAUACUUUCAGCUGCAACUCCCUGCAGGGUGGGGCACCCAUUUGAGGCAGGGUGUUUUGGUACCCU; result = 0.225 ratio
Strand = GGGGAGAAACCUUACGAGUGUGUGCAGUGUGGGAAAUCCUACAGUCAAAGCUCAAAUCUCUUCAGACAUCAGAGACGACACAAUGCAGAAAAACUUUUGAAUGUUGUGAAGGUUUAAGAA; result = 0.128 ratio
Strand = GGCCUGGGACCGUCCUGGGCUAGUACAAAUAGCGGCAGUGGAGGCUCGAGAGGAAAGUUUGUUAGUGAGGCAGUGGUUAGAGGCCGUAUGUACGCUCCCUUUACUCGAUAGAUGUGUUCU; result = 0.309 ratio
Strand = UUGAAAACUGAUUCAAGUAAGUUUGAGUAUCACAAUGUUAGCUUUCUAAUUCCAUAAAGAUAGUUUUUUUUUACAGUUUAUAAUCUGCAAUCCAUCAAGCGCCAUUUGUAAAGAGCAACU; result = 19.5 ratio
Strand = GAGUCGAGCAAACUUGAAACAAUUCGUUAUCUUGCAGCCUCAGUGUUCACUUGCUUGGCGAUAGCAUUGGGGUUUUAUAUAGAUUCUAAGGAGAACUGACGAUGAUGCUGCCGCUGCUGC; result = 0.265 ratio
Strand = UCUUAACUUAUUCAUUUAACUUAUUUUUAUAGCUAGAUAAAUAUUGUUAGUCUUAGAGAGUAGUUCACAUUUUUUGAGAAGCAUGCCCUCCCUGUCCAUUUGUCUUACAAUAACACUCAG; result = 6.9 ratio
Strand = ACUCAGAGAUCCACCUCCCAAAGUGCUGGGAGUAAAGGUGUGGCCACUCAAUUCUCCUUGAUGGAUAUAUAUUUUUUUUAAUAUGAAUCUUCCUGUUCGUCCAGGGAAGAAAGAUUUGUU; result = 0.479 ratio
Strand = ACACAAUAUGAGACCAACAGCUUGGACUUCAAAGUUGGGGCAGAUGGGACAGUCUUCGCCACCCGGGAGCUGCAGGUCCCCUCCGAGCAGGUGGCGUUCACGGUGACUGCGCGGGAAAGC; result = 0.255 ratio

Sample 2
Target: Ras GTPase-activating protein-binding protein 1, C-terminal RGG region (G3BP1, Homo sapiens, UniProt Q13283)
Sequence of UniProt Q13283 (whole entry, looked up): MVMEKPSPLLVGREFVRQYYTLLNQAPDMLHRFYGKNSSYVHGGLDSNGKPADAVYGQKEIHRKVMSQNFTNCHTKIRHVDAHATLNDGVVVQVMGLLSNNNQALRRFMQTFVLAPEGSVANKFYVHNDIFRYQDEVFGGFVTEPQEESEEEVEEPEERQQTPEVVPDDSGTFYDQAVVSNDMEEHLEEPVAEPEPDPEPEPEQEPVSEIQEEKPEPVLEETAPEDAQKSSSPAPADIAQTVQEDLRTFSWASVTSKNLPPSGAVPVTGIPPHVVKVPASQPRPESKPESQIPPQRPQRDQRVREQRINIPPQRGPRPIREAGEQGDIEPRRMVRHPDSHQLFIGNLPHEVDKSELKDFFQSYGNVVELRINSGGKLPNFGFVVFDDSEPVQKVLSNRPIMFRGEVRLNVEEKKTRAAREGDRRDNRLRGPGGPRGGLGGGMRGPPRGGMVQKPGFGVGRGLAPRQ
Method: RNA Bind-n-Seq
Form: RNA
Matrix: in vitro
Tested at: 1 µM
Notes: whole 134-nt RNA, ends assumed
With: 150 mM KCl
Baseline: input library
Direction: higher = stronger binding
Quantity: log2 enrichment
All sequences stand within: GGGAGUUCUACAGUCCGACGAUC … UGGAAUUCUCGGGUGUCAAGG
Strand = CACAGACAACACGCACCCACACAGACACAGAGGGAAGGGGUUGGGAUGGGUACAGGGUGCACAGCAGGGCGGGGUAGGACCCCAGCCCCU; result = -0.457
Strand = UGGCCCUGGUGGCAUGCGGGGAGGAAGAGGUGGCCUCAUGGAUCGUGGUGGUCCCGGUGGAAUGUUCAGAGGUUGCCGUGGUGGAGACAG; result = 3
Strand = GCAGGAAGUAAAAACAAAUGGAAAUGCUUCGGAUAGUGACAGGGGUGGGGGUUGCUAAGGAAAGGGUGGGAUGGGAGUGGGUAAAGAGUU; result = 0.874
Strand = GUCCUGUGCUACACAUCGUAUGUACCGAAUCGGGUUUUUUUGGGUUUGGGAAAAAGGGAAAGUAUUAUGUUACGCCGUUCGGAUCUGCAC; result = -0.61
Strand = CUCAAGUCCUGUGCUACACAUCGUAUGUACCGAAUCGGAAAAAGGAAAGGUGGAAAGUAUUAUGUUACGCCGUUCGGAUCUGCACUUCCA; result = -1.4
Strand = UCCUGUGCUACACAUCGUAUGUACCGAAUCGGGGCCCCCGGGCCCCCGGGCCCCCGGGGAAAGUAUUAUGUUACGCCGUUCGGAUCUGCA; result = -2.28
Strand = CACAGACAACACUCACCCACACAGACACAGAGGGAAGGGGUUGGGAUGGGGACAGGGUGCACAGCAGGGCGGGGUAGGACCCCAGCCCCU; result = 0.289
Strand = UGUGUUGUGCUCAUUACCAGUGCAGCGACUGCCGUCCCAGGGUGACUCUGAGUUGUCCUUUAUCGUGAGCUAGCAAUGGCUAGCGAAGAC; result = -1.27
Strand = GCAGGAAGUAAAAACCAAUGGAAAUGCUUCGGAUAGUGGCAGGGGUGGGGGUUGCUAAGGAAAGGGUGGGAUGGGAGUGGGUAAAGAGUU; result = 2.29
Strand = ACCAUGCAGGUGGGGAUCUUUGGGAAGUGGGGCAAGGGGGGGAUAGGGAGGGGGGUAACACUUUGGGAACAGGUGGUCCCAGGUCGUUUC; result = -1.56
Strand = CCUGUGCUACACAUCGUAUGUACCGAAUCGGGAAAAAGGGAAAAAAAGGGUUUUUUUGGGAAAGUAUUAUGUUACGCCGUUCGGAUCUGC; result = -1.71
Strand = UGAAUGCUGAGAAUGUUGCUGGUCACCAGAUUGCCUCUGAAACACAGAUCCUUGAGGGCUCUUUGGGAAUAUCUGUAAAGUCACACUGCA; result = -0.411
Strand = UUGAUUGAUAUUACAGGCAAGAACCAGGAUGAAUGUGUGAUUGCUUUGCAUGACUGCAAUGGAGAUGUCAACAGAGCUAUCAAUGUUCUU; result = -2.23
Strand = GUCCUGUGCUACACAUCGUAUGUACCGAAUCGGGAAAAAAGGAAAAAAGGAAAAAAGGAAAGUAUUAUGUUACGCCGUUCGGAUCUGCAC; result = -1.53

Sample 3
Organism: Saccharomyces cerevisiae
Observed: binding
Method: competitive growth deep sequencing
Form: peptide
Strain: cyclin D3-Cln2 fusion strain
Tested at: concentration not given
Notes: RxL motif peptides
Direction: direction not given
Quantity: growth enrichment score
Molecule = PGASRRLFGSSAD; result = 0.224
Molecule = PPVKRRLDLETDH; result = -0.0223
Molecule = QDYERRLLRQIVI; result = 0.201
Molecule = STTRRRLFVENDS; result = 0.212
Molecule = PSAKRSLGFLPQP; result = -0.0289
Molecule = PPHRRRLLFACSP; result = -0.141
Molecule = PKPLKKLRFDIEG; result = 0.339
Molecule = LPAKRKLDLEGIG; result = 0.216
Molecule = ARYKRKLLINDFG; result = 0.222

Sample 4
Target: RNA binding protein fox-1 homolog 2, RRM domain, GST-SBP tag (RBFOX2, Homo sapiens, UniProt O43251-10, residues 100-194)
Method: RNA Bind-n-Seq
Form: RNA
Matrix: in vitro
Tested at: 365 nM
Notes: natural RNA segment, single round, ends assumed
Baseline: no-protein control
Direction: higher = stronger binding
Quantity: RBNS enrichment (R)
All sequences stand within: GGGAGUUCUACAGUCCGACGAUC … UGGAAUUCUCGGGUGCCAA
Target sequence (chain): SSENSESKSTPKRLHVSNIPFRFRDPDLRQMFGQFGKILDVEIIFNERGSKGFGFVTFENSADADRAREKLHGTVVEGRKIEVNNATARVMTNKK
Strand = GGGUAACUUGCCACCACCCUGGAUCCAAGUUCCCAUGGAGGGGAAAAUUAGGACAUUUAGUAGUGAGGCACUGGUACCUUCUCCCUGCUCCUGUUAUAGAGGAGGCUACG; result = 0.468
Strand = UGGUUCCAUCCAUCCCCACAACAGCCUGCCAAUCGAAGCCCGUCCCUGCAUCCAGGAUGGUACCAGCUCCCGCCCCUCGCCCCCCACCUCCACAGGUGCCUUAAAGGGCC; result = 7.1
Strand = UGACUUGUGCUGUAUGAUUCUCACUGAAGAAUUUCCUUUCAGCCAAGAAGCAGUGAGGUCUGGGAAUAUUCCAAAGUCAUGUCUCUGAAUAUGUGUCCUUGACGUGCAAG; result = 0.354
Strand = CAAAAGAGAAGUCUGUGCACCUCAAGUGAGGUCCCAGGAGCUUUCCUCGCCCUCCAAACCAAGCAUUGAGGGUAACCCUCAGAACCCAUUCUCCUAUCUCCUAAAGUGUC; result = 0.364
Strand = UUUCUCUUUCCUAGACUCGCGGUGCUCACAUCCAGACAUUACCUUGUUGGUAGCCCCCAAGUGGCGUGCAGUGACACCAGUAUCUUCUCUGUUGCAUUUUUGCAAUCUUG; result = 0.277
Strand = CACAGUUAUGUUUCCAUUGUAAUUUCUAGGUUCCUCACAAAAAUCUAUUUCAGUGCUGUAGCUGUUAGUUUUAAGUGAGUGCUAAAGUUCUUUUAAAAGUACACAGAAUU; result = 0.717
Strand = AUAAUUCUGUUUGCUAAAUGUUGCCUUUAUGCUUUCAAACUGAAUUAAACCCAUUGUGAGGUUGACACUGGGAGGGGCUAGAAGAUUGGUGGGCAGCAGACUAAAGAGUU; result = 1.1
Strand = CCCGGUGCUGGGCCUGGCCGAGGGGCGGAGGCACAGCUGCUUCCAGCAGCCAGCAUUCAGUGGCCUUGUCACCAAGCUCCACACCUCCUCCUGGUGCUGGCUUUGGUGAC; result = 0.319
Strand = AGUGAGGCAGCUAGUUCUUCCUAUUCCAUUCUCGACCAACCUGCCCUUUCUUAAUAUGACUAGUGGUCUUGAUGCUAGAGUCAACUUACUCUGUUGCUGGCUUUAGCAGA; result = 0.275
Strand = GAGACCCUGGGAGACCAAGGCAUUCCCUGAAUAUCGUCCCCUUGCCUUCCCUACCGGCCAUUUCCUUUAGCUCCCUCAAGGCUCUUGGGGAGUUUGCUUGGGGCUCUAAG; result = 0.467
Strand = GCAUUGGUACUGGUCUGAGCCACCUGCUACCCAGUAGAUAGAUAACCUUUUUGUUAGUGUUUAAGGGAGCCCCUGAAGAGACUCAACAGAACAGUGAGAGGAGAGAGAGA; result = 0.427
Strand = CCCUGCCUGCCCAUCUCAGAGCCAUAAGGUCAUCUUUGCUAGAGCUAUUUUUACCUAUGUAUUUAUCGUUCUUGAUCAUAAGCCGCUUAUUUAUAUCAUGUAUCUCUAAG; result = 0.373

Excerpt of the above (sample 3):
Molecule = STTRRRLFVENDS; result = 0.212
Molecule = PSAKRSLGFLPQP; result = -0.0289
Molecule = PPHRRRLLFACSP; result = -0.141
Molecule = PKPLKKLRFDIEG; result = 0.339
Molecule = LPAKRKLDLEGIG; result = 0.216
